Published values of several laboratories.
Numbered parts are unrelated; each lists some results of a single study. Positions count from the first letter of the parent shown.

Study 1
Target: Centromere-binding protein 1, full length, His-tagged (CBF1, Saccharomyces cerevisiae, UniProt P17106, residues 1-351)
Sequence of UniProt P17106 (whole entry, looked up): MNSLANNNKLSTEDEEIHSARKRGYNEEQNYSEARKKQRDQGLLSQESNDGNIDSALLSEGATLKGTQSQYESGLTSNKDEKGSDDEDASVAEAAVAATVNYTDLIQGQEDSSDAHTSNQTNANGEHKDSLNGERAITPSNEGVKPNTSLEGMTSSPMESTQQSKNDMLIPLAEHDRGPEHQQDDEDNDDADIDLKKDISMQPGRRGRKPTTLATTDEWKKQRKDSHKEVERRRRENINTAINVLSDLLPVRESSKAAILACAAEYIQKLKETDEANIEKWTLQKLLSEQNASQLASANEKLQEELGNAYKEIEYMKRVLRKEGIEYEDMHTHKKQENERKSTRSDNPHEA
Method: competition protein-binding microarray
Molecule type: double-stranded DNA, one strand shown
Sample: in vitro
Concentration: 2 µM
Notes: whole 60-bp probe, lowest competitor level
Together with: Pho4 competitor, 0.05 µM
Direction: higher = stronger binding
Quantity: fluorescence intensity
All sequences stand within: … GTCTTGATTCGCTTGACGCTGCTG
CTTTCCCGATCTTGTATTGTGGGTGTAGCACATTTG: 76.8 a.u.
CTAACGAAGGTTTGGACAGTGGGTGACAAGCCAAGT: 61.8 a.u.
CTAACGAAGGTTTGGCTCGTGGGTGACAAGCCAAGT: 86.8 a.u.
CTTTCTGCCTTGGAAGGCGTGATGGTGATGGTACAT: 117 a.u.
CTTCTGTAAATTTGTCACTACACTTGACGCGCCCCG: 88.9 a.u.
AAATTACTAAGTTGCTGGGTGGGTGACGCCGTATGA: 78.9 a.u.
TTCCTTTGGATTTTCCGCGTGTGTTTTCTGACCGTT: 79.6 a.u.
GTACTGCACCATTTGACCGTGATGGACACCATGGAG: 78.3 a.u.
CTTCTGTAAATTTGTATAGTGGGTGGACGCGCCCCG: 72 a.u.
CTTTCCCGATCTTGTTATGTGGGTGTAGCACATTTG: 91.5 a.u.
TTCTCGAAGAGTCGGCACGGGATCCTGAAAAAAGCA: 410 a.u.
ATAGAGCTGTATTCTGAAGACCTCTTGTAGAACATC: 78.1 a.u.
CGTATTGGTAACCATCACGTGCCGAGCAGTAGACCT: 4390 a.u.
CTTCGTTCCTTCCGTCACATGATGAGATAGAGGAAT: 1340 a.u.
CCCGCCCCCGGCCAGCACGCGCCTCTGCCTGAGACC: 72.8 a.u.
CCTTGAATGATAAAACACGTTAAAGTTTCTAGATCA: 93.1 a.u.
CGGGGTTAAGTTTGCCCGGTGGGTGGCTTGCAGCAG: 58.4 a.u.
ACCTAGGACTACCAACACATGCAAGGATGCCAGTCT: 69.4 a.u.
ACAAGGGCCCTTAAAGGCGTGACTCGAAAAAGGGGC: 546 a.u.
CTTCTGTAAATTTGTGGGGTGGGTGGACGCGCCCCG: 96 a.u.

Study 2
Target: ABI1, truncated, D143A, DHFR fusion (Arabidopsis thaliana)
Method: DHFR PCA, deep sequencing
Sample: yeast
Notes: methotrexate growth selection, single substitutions
Together with: (+)-ABA 4.8 µM
Relative to: wild-type fitted maximum
Direction: higher = stronger binding
Quantity: relative binding score
Starting sequence: PYL1, truncated, DHFR fusion (Arabidopsis thaliana); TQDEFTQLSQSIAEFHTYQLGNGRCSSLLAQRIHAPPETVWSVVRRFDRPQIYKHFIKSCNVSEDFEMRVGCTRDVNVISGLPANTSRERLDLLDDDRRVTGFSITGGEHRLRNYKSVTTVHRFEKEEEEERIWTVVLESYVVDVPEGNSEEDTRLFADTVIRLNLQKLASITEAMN; partner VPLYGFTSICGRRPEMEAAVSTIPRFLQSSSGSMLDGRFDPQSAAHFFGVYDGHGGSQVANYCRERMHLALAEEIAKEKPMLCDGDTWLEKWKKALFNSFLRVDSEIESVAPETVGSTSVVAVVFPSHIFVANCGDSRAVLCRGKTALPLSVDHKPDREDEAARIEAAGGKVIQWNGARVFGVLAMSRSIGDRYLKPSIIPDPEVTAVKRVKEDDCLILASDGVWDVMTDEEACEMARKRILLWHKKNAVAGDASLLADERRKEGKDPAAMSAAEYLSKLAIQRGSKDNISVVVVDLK
E125D: 71.1%
E128H: 73.8%
D144V: 6%
D65H: 67.9%
D95E: 17%
Q19D: 76.4%
L20H: 77.1%
K58I: 4.41%
L82K: -8.17%
T120W: -5.64%
N114L: -5.73%
V44E: 11.4%
P50Q: -7.89%
N77G: 61.5%
A13Y: 41.6%
P50I: -13.7%
S117D: -27%

Study 3
Target: RING finger protein unkempt homolog, zinc fingers 1-6, GST-SBP tag (UNK, Homo sapiens, UniProt Q9C0B0, residues 30-357)
Sequence of UniProt Q9C0B0 (30-357, looked up): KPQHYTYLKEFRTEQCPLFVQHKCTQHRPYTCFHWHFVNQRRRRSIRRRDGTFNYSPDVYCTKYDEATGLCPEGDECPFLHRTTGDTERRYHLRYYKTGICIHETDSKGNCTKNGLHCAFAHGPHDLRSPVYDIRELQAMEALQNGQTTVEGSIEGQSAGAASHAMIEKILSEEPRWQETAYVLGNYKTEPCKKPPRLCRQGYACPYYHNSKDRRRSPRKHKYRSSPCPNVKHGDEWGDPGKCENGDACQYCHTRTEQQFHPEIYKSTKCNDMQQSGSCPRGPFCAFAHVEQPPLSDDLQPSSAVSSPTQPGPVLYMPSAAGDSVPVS
Method: RNA Bind-n-Seq
Molecule type: RNA
Sample: in vitro
Concentration: not given
Notes: RNA with constant flanks, human and mouse sites, ends assumed
Relative to: input RNA pool
Direction: higher = stronger binding
Quantity: bound/input enrichment
All sequences stand within: GGGAGUUCUACAGUCCGACGAUC … CAACAGAGGAUUGAGCAUCA
CUGGGAUGGUGGAAUUGGGGUUAUUUCUACAAUUAUUCUUAGACGAUUACUAAACUGUUAAGAAAUGCCCCAUAUCAUUUUUGUAUCUAGGAAAGAAAAAAAUCAGUUUCAUACUGUUGU: 1.31 ratio
ACGGAUAUCGCCUACAACCAGACCAUCCUGCCCAACCUGCUGGGCCACACGAACCAAGAGGACGCGGGCCUCGAGGUGCACCAGUUCUACCCUCUGGUAAAGGUGCAGUGUUCUCCUGAG: 0.0724 ratio
UCAGGAACCCAGACAAACAUGAAUGUAAAUGAAGUCAUUAGCAACAGAGCAAUUGAAAUGUUAGGAGGUGAACUUGGCAGCAAGAAGCCUGUGCACCCCAAUGAUCAUGUUAACAAAAGC: 0.252 ratio
GAAAAAGAGGAGGAAGUACAUGCUCGUUUACUUCAUUGUGUAAGCAAACAGAAAAUUUUACUUAGCCAGGCUAGAAGAACUCAGAAACAUUUGCAGAUGCUCCUGGCAAAGCAUGUUGUU: 0.241 ratio
GGCAGCAACCCCACGUCCGCCUCGGAUGACUCCAACGGGCUGGAGUGGGAGAACGACUUUGUCAGUGCCGAGAUGGACGACAACGGCAACUCUGAGUACUCCGGGUUUGUGAACCCUGUG: 0.0565 ratio
GCAAUGACAAUUUCCUAAGAUAACUGAAAUGAACAGUGAAGAAACUGUGCUCAUAAAUCAGUACAUAAAGAUUACUUCCUAGGACUUUUAUUUCCCAUUAGUAUUAUUUAUUAUUCAAGG: 121 ratio
UAUGCUUUGGACACACUUUAUAAUAUAAUAUCUAAUGACGAAGAGGAAGAACUAGAAGAAAAUUCUACAAGACAGAGUGAGGAUUUGGGAAGCCAGUUUACAGAAAUUUUCAUUAAGCAG: 0.864 ratio
GUUCCAGACCCGGAGCUGAUCGAUUUGAUCUACUGUGGCCGGAAGCUAAAAGAUGACCAGACCCUUGACUUCUAUGGUAUUCAGCCUGGAUCCACAGUCCAUGUUCUCCGAAAAUCUUGG: 0.0528 ratio
GCCUGGAGAUUUGCGCCCGCACAUGGUCAUUGGUUUUCCGAAAAGAGAGGGUAAAUUUAUAUAGAAAUUUACAGGUAUUUGGGUAGUCAUUUAGACCGAGGGAGACCAGUGUUUCCAUUU: 0.338 ratio
AACAAGUGGGUAAUUCCAGAAUUGAUUGGCCAUACCAUUGUCACUGUAUUACUGCUCAUGUCAUUGCACUGGUUCAUCUUCCUUCUCAACUUACCUGUUGCCACUUGGAAUAUAUAUCGA: 0.276 ratio
AGCGCCUCAGAUGAUCAGACCAUUCGGGUGUGGAACUGGCAGUCUAGAACCUGUGUCUGUGUGUUAACGGGGCACAACCAUUAUGUAAUGUGUGCUCAGUUCCACCCCUCUGAAGACCUG: 2.46 ratio

Study 4
Target: CCNA1, cyclin fold, Cln2 fusion (human)
Method: yeast growth competition, sequencing
Sample: yeast
Notes: weak parent motif
Relative to: not given
Direction: higher = stronger binding
Quantity: normalised enrichment score
Starting sequence: PKMYT1 docking peptide (human); SFEPRNLLSLFED
SFEPRNLLSKFED [L10K]: 0.0412
SFEPANALSLFED [R5A L7A]: -0.106
SFEIRNLLSLFED [P4I]: -0.0443
SFEPANLLSLFED [R5A]: 0.329
SFEPRNLLWLFED [S9W]: 0.0426
SFEPRNLDSLFED [L8D]: 0.0182
SFEPWNLLSLFED [R5W]: 0.241
SFEPRNLVSLFED [L8V]: 0.0887
SFEPRELLSLFED [N6E]: 0.229
SFEPRNELSLFED [L7E]: -0.0351
SFEPRNLLSLSED [F11S]: 0.411
SFEPRNLLSLEED [F11E]: 0.308
IFEPRNLLSLFED [S1I]: 0.188
SFEPKNLLSLLED [R5K F11L]: -0.648
SFEPRNLLSIFED [L10I]: 0.579
SFEGRNLLSLFED [P4G]: -0.0122
SFSPRNLLSLFED [E3S]: 0.0497
SFEPRNLLSLFEA [D13A]: 0.247
MFEPRNLLSLFED [S1M]: 0.614
SFEPRNNLSLFED [L7N]: 0.158
SFEPRNFLSLFED [L7F]: 0.514
SFEPRNLLSLDED [F11D]: 0.317
SFEPRNLHSLFED [L8H]: 0.322
SFEPRNLLSLNED [F11N]: 0.304
SFEPRNLLSLFTD [E12T]: -0.32

A few entries again (study 3):
GGCAGCAACCCCACGUCCGCCUCGGAUGACUCCAACGGGCUGGAGUGGGAGAACGACUUUGUCAGUGCCGAGAUGGACGACAACGGCAACUCUGAGUACUCCGGGUUUGUGAACCCUGUG: 0.0565 ratio
GCAAUGACAAUUUCCUAAGAUAACUGAAAUGAACAGUGAAGAAACUGUGCUCAUAAAUCAGUACAUAAAGAUUACUUCCUAGGACUUUUAUUUCCCAUUAGUAUUAUUUAUUAUUCAAGG: 121 ratio
UAUGCUUUGGACACACUUUAUAAUAUAAUAUCUAAUGACGAAGAGGAAGAACUAGAAGAAAAUUCUACAAGACAGAGUGAGGAUUUGGGAAGCCAGUUUACAGAAAUUUUCAUUAAGCAG: 0.864 ratio
GUUCCAGACCCGGAGCUGAUCGAUUUGAUCUACUGUGGCCGGAAGCUAAAAGAUGACCAGACCCUUGACUUCUAUGGUAUUCAGCCUGGAUCCACAGUCCAUGUUCUCCGAAAAUCUUGG: 0.0528 ratio
GCCUGGAGAUUUGCGCCCGCACAUGGUCAUUGGUUUUCCGAAAAGAGAGGGUAAAUUUAUAUAGAAAUUUACAGGUAUUUGGGUAGUCAUUUAGACCGAGGGAGACCAGUGUUUCCAUUU: 0.338 ratio
AACAAGUGGGUAAUUCCAGAAUUGAUUGGCCAUACCAUUGUCACUGUAUUACUGCUCAUGUCAUUGCACUGGUUCAUCUUCCUUCUCAACUUACCUGUUGCCACUUGGAAUAUAUAUCGA: 0.276 ratio
